Published values from different studies.
Lines come from different studies, so protocols differ.
Chain of UniProt Q9UIF8 (whole entry, looked up): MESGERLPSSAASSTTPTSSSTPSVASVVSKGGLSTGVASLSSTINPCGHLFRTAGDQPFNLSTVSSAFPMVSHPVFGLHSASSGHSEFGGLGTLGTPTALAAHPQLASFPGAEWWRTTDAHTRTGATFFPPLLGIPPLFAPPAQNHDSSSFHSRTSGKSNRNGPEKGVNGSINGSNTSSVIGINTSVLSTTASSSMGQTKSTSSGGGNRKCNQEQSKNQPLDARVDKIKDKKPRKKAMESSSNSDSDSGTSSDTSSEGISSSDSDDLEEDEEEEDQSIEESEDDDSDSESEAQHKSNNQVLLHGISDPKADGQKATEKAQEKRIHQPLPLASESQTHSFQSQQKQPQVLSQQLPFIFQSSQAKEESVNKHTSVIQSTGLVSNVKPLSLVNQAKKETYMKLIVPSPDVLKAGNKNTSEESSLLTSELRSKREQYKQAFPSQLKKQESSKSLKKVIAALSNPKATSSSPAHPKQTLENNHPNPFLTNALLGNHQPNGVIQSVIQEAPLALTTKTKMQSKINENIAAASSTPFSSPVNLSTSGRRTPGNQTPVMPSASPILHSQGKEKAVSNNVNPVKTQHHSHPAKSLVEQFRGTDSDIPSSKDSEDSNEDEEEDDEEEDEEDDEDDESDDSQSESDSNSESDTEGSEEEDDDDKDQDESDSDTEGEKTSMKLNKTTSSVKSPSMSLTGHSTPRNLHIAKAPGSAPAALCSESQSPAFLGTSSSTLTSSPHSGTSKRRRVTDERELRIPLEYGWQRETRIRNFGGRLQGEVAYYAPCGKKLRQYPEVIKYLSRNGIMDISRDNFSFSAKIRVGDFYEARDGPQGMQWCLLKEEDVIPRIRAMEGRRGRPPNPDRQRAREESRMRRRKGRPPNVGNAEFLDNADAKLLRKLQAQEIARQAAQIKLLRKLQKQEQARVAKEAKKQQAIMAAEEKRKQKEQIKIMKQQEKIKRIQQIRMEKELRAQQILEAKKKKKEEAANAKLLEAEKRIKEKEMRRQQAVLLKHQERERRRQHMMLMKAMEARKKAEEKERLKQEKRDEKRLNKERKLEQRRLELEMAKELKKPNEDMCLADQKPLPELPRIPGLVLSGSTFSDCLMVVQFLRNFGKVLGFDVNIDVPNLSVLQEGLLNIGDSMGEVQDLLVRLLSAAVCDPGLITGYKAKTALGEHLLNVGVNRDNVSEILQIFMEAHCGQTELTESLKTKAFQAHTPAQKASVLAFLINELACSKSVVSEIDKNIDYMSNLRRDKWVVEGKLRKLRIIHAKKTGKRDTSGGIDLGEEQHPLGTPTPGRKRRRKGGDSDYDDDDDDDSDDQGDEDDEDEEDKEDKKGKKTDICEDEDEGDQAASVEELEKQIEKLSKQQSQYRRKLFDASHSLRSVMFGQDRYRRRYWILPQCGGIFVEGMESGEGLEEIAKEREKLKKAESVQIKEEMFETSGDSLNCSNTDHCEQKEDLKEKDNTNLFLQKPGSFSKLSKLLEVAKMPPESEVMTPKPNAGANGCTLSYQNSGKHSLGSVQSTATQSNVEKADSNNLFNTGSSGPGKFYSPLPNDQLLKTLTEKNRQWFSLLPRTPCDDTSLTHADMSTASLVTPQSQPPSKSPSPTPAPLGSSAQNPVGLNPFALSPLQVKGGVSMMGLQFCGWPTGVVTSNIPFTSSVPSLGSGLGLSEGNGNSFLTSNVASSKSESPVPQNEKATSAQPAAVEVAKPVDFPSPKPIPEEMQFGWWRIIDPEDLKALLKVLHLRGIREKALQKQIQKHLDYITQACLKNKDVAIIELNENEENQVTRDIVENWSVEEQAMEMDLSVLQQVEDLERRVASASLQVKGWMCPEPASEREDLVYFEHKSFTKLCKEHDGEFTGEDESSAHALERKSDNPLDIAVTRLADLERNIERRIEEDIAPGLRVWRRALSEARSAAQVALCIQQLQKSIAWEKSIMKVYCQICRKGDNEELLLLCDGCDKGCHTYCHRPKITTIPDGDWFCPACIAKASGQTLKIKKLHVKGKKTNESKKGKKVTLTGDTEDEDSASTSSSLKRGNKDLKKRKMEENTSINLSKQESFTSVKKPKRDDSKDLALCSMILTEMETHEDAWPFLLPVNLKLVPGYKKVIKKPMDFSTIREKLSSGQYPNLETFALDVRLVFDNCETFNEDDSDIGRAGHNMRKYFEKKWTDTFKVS
Chain of UniProt Q15746 (whole entry, looked up): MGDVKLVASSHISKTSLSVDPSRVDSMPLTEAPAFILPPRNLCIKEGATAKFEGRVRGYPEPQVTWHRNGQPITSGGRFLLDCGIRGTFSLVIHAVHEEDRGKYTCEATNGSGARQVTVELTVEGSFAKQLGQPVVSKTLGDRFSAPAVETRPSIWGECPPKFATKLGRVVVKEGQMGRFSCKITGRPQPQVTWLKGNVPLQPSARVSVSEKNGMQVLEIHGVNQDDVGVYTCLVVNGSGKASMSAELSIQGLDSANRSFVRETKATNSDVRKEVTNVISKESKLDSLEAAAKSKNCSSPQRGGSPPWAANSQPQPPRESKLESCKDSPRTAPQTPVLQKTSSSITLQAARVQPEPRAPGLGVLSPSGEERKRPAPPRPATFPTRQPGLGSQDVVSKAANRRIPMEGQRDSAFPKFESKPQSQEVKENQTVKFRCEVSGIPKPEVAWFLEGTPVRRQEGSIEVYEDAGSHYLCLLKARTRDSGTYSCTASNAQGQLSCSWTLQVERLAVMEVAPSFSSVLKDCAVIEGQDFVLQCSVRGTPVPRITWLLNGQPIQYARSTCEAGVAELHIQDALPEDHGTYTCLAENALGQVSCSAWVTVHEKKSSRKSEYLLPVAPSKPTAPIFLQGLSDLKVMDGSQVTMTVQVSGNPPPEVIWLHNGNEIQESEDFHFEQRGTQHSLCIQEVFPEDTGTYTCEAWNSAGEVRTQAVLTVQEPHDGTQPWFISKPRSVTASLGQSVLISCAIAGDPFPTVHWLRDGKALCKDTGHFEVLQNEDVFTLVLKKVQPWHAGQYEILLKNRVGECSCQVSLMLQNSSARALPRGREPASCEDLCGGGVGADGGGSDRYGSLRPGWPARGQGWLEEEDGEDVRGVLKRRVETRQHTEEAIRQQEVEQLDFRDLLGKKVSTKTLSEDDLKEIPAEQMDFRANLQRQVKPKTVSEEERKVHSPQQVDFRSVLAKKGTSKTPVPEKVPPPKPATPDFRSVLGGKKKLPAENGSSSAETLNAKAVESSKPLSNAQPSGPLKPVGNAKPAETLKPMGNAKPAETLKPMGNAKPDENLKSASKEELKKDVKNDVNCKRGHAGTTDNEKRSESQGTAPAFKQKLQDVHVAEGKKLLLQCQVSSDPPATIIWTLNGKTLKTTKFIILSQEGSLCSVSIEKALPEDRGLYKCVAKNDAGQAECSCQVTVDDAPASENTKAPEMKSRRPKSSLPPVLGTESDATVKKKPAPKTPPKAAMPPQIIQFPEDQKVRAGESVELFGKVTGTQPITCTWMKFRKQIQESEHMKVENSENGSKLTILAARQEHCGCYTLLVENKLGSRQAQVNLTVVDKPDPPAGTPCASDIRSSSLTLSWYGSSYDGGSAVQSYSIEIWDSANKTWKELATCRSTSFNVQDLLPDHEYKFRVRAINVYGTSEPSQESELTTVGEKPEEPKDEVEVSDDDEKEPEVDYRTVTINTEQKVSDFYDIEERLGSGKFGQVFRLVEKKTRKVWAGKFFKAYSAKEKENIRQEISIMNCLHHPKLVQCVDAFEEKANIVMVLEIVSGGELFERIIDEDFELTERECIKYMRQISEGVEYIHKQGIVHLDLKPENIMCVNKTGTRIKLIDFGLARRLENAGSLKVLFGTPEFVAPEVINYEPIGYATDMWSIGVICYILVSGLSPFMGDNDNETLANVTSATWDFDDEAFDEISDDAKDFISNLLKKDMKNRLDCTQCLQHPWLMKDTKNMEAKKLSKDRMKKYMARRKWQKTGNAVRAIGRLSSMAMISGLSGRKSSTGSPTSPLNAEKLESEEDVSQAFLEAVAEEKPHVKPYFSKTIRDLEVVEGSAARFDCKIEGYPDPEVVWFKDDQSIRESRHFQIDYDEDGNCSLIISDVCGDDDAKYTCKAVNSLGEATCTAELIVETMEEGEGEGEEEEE
Chain of UniProt P51957 (whole entry, looked up): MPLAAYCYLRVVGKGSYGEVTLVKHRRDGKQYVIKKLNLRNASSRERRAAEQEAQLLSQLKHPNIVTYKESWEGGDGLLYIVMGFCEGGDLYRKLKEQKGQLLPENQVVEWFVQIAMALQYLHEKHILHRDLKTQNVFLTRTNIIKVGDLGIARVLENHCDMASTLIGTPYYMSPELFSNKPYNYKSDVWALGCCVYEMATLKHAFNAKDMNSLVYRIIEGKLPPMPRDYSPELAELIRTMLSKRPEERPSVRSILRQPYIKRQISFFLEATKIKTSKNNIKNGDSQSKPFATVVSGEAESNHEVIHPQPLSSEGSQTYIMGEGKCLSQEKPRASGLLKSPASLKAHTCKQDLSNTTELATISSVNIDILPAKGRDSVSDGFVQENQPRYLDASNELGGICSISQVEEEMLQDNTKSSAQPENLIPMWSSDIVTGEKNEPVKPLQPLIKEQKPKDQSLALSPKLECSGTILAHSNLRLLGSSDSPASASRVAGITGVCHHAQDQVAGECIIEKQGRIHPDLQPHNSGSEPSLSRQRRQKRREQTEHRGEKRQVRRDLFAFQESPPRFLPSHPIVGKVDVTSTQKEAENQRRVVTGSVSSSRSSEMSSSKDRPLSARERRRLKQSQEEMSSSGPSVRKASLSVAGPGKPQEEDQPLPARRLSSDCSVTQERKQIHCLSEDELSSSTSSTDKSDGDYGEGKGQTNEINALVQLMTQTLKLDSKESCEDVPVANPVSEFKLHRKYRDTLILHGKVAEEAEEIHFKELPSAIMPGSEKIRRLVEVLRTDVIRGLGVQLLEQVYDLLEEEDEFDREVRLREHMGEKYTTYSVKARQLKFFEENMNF

With `CNc1ncc2c(/C=C/C(=O)N3CCC(OC)CC3)nn(Cc3cccc(C(F)(F)F)c3)c2n1` the remaining activity was 96% (Mitotic checkpoint serine/threonine-protein kinase BUB1 beta (BUB1B, Homo sapiens, UniProt O60566); enzyme activity, inhibitor, radiometric; 1 µM).
`C=CC(=O)N1CCC(COCC(=O)N2CCN(c3nc(-c4cnc(N)nc4C(F)F)nc(N4CCOC[C@@H]4C)n3)CC2)CC1` has a remaining binding of 69% (Serine/threonine-protein kinase WNK2 (WNK2, Homo sapiens, UniProt Q9Y3S1); binding, competition with immobilised ligand; 1 µM).
With `C[C@H]1CCN(c2nccc(-c3cnn4ncccc34)n2)C1` the remaining binding was 86% (Calcium-dependent protein kinase 1 (CDPK1, Plasmodium falciparum, UniProt P62344); binding; 1 µM).
With `COc1cc(-c2cncc3c2CN(C)Cc2cc(N4CCNCC4)ccc2-3)cc(OC)c1OC` the remaining activity was 106% (Tyrosine-protein kinase JAK2 (JAK2, Homo sapiens, UniProt O60674); enzyme activity, inhibitor; 1 µM).
With `FC(F)(F)Oc1cccc(-c2cnc3ccc(-c4ccncc4)nn23)c1` the remaining binding was 40% (Myosin light chain kinase, smooth muscle (MYLK, Homo sapiens, UniProt Q15746); cell-free assay, competition with immobilised ligand; 5 µM).
`COc1ccc2oc(-c3ccc4nc(N)oc4c3)c/c(=N\c3ccccc3NC(=O)CCN)c2c1` gave a remaining binding of 96% (Tyrosine-protein kinase JAK1, JH1 (JAK1, Homo sapiens, UniProt P23458); binding; 1 µM).
With `CCCCC(=O)Nc1ccc(-c2ccc3ncn(CCC)c(=O)c3c2)cn1` the remaining binding was 100% (Serine/threonine-protein kinase Nek4 (NEK4, Homo sapiens, UniProt P51957); binding, competition with immobilised ligand; 0.5 µM).
For `O=S(=O)(Nc1nccs1)c1ccc(N=NN(O)c2ccccc2)cc1`, the inhibition was 32.9% (DPPH scavenging, absorbance; 120 µg/mL).
For `C1=C/COCc2cc(ccc2OCCN2CCCC2)Nc2nccc(n2)-c2cccc(c2)COC/1`, the remaining binding was 100% (Ephrin type-A receptor 6 (EPHA6, Homo sapiens, UniProt Q9UF33); binding; 0.1 µM).
`Cc1cc([C@@H](C)Nc2ccccc2C(=O)O)c2nc(N3CCC(F)(F)CC3)c(C#N)c(=O)n2c1` gave a remaining binding of 82% (Phosphatidylinositol 4,5-bisphosphate 3-kinase catalytic subunit gamma isoform (PIK3CG, Homo sapiens, UniProt P48736); binding, competition with immobilised ligand; 10 µM).
With `NS(=O)(=O)c1ccc(Nc2nc(-c3ccc(F)cc3)c3ccccc3n2)cc1` the remaining binding was 90% (Bromodomain adjacent to zinc finger domain protein 2B, bromodomain (BAZ2B, Homo sapiens, UniProt Q9UIF8); binding, competition with immobilised ligand; 1 µM).
`CCN(O)N=Nc1ccc(S(=O)(=O)Nc2onc(C)c2C)cc1` gave an inhibition of 9.81% (DPPH scavenging, absorbance; 20 µg/mL).

Some of these lines once more:
With `NS(=O)(=O)c1ccc(Nc2nc(-c3ccc(F)cc3)c3ccccc3n2)cc1` the remaining binding was 90% (Bromodomain adjacent to zinc finger domain protein 2B, bromodomain (BAZ2B, Homo sapiens, UniProt Q9UIF8); binding, competition with immobilised ligand; 1 µM).
`CCN(O)N=Nc1ccc(S(=O)(=O)Nc2onc(C)c2C)cc1` gave an inhibition of 9.81% (DPPH scavenging, absorbance; 20 µg/mL).
